Published values from different studies.
Every numbered part comes from another study and shows a few of its results, in no order. Positions count from the first letter of the parent shown.

Sample 1
Target: Histone acetyltransferase KAT6A, both winged helices, GST fusion (KAT6A, Homo sapiens, UniProt Q92794, residues 1-181)
Technique: protein binding microarray
Form: double-stranded DNA, one strand shown
Sample: in vitro
Tested at: not given
Setting: 8-mer, flanks averaged, mean of 2 arrays, mostly near background
Baseline: not given
Reading: higher = stronger binding
Target sequence (chain): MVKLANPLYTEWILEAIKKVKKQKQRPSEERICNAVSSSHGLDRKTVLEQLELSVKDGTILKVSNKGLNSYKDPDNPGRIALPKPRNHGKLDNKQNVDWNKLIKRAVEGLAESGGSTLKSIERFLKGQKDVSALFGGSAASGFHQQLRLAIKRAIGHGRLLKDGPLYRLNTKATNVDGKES
| Sequence | E-score |
| --- | --- |
| CAGAGGAA | -0.121 |
| ACATTGTA | -0.102 |
| ACTCGAGA | -0.0424 |
| CTAGGCAA | -0.0898 |
| CGGTATTC | 0.212 |
| TACGGAAA | 0.24 |
| CATACAGG | -0.211 |
| CGCCTTCA | 0.0942 |
| GCCCACGA | -0.195 |
| AGCAAACT | -0.0337 |
| ACGCGATA | 0.209 |
| AGTCAACT | -0.17 |
| GGTCGAAC | -0.0148 |
| AAAGACTG | -0.184 |

Sample 2
Target: CCND3, cyclin fold, Cln2 fusion (human)
Technique: yeast growth competition, sequencing
Sample: yeast
Setting: weak parent motif
Baseline: not given
Reading: higher = stronger binding
Starting sequence: MASTL docking peptide (human); PMIAKNLMCELDE; partner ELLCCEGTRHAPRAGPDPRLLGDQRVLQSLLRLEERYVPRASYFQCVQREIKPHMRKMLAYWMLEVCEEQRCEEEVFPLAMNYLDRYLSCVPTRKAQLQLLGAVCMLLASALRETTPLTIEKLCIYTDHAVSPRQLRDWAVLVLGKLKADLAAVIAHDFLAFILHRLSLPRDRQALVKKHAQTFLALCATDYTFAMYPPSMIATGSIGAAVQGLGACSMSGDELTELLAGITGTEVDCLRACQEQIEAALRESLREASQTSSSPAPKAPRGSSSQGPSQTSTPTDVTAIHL
| Substitution | normalised enrichment score |
| --- | --- |
| D12L | 0.18 |
| M2Y | 0.126 |
| E10S | 0.0417 |
| M2S | 0.0027 |
| A4R | 0.412 |
| N6Q | -0.000307 |
| L7D | -0.083 |

Sample 3
Target: RING finger protein unkempt homolog, zinc fingers 1-6, GST-SBP tag (UNK, Homo sapiens, UniProt Q9C0B0, residues 30-357)
Sequence of UniProt Q9C0B0 (30-357, looked up): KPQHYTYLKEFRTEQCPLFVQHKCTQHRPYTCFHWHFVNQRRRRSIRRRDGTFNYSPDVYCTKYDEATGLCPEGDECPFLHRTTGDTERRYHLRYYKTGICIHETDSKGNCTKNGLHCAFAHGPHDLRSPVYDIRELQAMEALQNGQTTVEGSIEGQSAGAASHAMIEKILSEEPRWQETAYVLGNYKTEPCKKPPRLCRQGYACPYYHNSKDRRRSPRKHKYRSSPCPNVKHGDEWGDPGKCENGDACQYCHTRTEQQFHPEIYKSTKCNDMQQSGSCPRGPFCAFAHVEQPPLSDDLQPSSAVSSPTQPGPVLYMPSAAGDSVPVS
Technique: RNA Bind-n-Seq
Form: RNA
Sample: in vitro
Tested at: not given
Setting: RNA with constant flanks, human-mouse chimeric sites, ends assumed
Baseline: input RNA pool
Reading: higher = stronger binding
All sequences stand within: GGGAGUUCUACAGUCCGACGAUC … CAACAGAGGAUUGAGCAUCA
| Sequence | bound/input enrichment [ratio] |
| --- | --- |
| AAUGUGGAGUUGAGUUCCUUGGCCCGGCUUCCCAGCUUGAAUAAACUCCGGAAGUUGGAACUUAGUGAUAAUAUAAUUUCUGGAGGCUUGGAAGUCCUGGCAGAGAAAUGUCCAAAUCUU | 5.13 |
| AACUUCGUGCAUCGGUUUCCCUUUGUAGCUGUUUCAAUUGGCUUUGCUGUGAAUAAAGAGAUGGAGUUUGGAAUUGUGUACAGCUGUGUGGAAGAUAAGAUGUACACCGGCAGGAAAGGG | 0.461 |
| AAAGAGAAACUAAAGCAAACUGAUUGAAAGAGGAUUGGCAAAGAGAAUUUCAUAGAGAAACUAGGAUUUAUUAGCAAACAUGAGUUAUAUUCCAGAGCGUCUCAGAAACCCCAGCCAAAC | 4.46 |
| AUCAAAUACUUUGGGGACAUCAUUAGUGUGGGACAGAGACUGUUGCAAGGAGCUCGGAUCUUAGGGAUUCCAGUUAUCAUAACGGAACAAUACCCUAAAGGACUUGGCAGCACCGUUCAA | 0.181 |
| ACUCUUGACUCUUUCCAUUCUCGUCCCUUCCCUCUUGAUCUUCAAGGCCAUGAAUCCCAAAAUAACAGUCUUAGUGGCUAGCACCCAAACAGAGGUGGAAUAAAUCCACCCCAGUGUCUC | 0.65 |
| UUUCUACUGCAGCAGACGAUGCUAAGAGUGAAGGAUCCUAAGAAGUCCCUGGAUUUUUAUACGAGGGUUCUUGGACUGACCCUCCUGCAGAAGCUUGACUUCCCUGCUAUGAAGUUCUCG | 0.138 |
| AGCACAACCCCAGCAAAGCUAAGAAAUCCUUGCACAAGUGAACAAAACUGCACCAGCCCAUUUAGCUACAAAAAUGUGCUUAGUCUUACUGACAGAGGAGAGUUUUUUAAUGAACUUGUU | 1.26 |
| GGGGAGAAACCUUAUGAGUGUGUGCAGUGUGGGAAAUCCUACAGUCAAAGCUCAAAUCUCUUCAGACAUCAGAGACGACACAAUGCAGAAAAACUUUUGAAUGUUGUGAAGGUUUAAGAA | 0.126 |

Other studies, line by line
| Molecule | target | assay | system | conditions | scale | quantity | value |
| --- | --- | --- | --- | --- | --- | --- | --- |
| PhoQ, residues 284 288 289 292 302 303 TTCLQL | PhoP, residues 12 14 15 18 19 IQFRS (Escherichia coli, UniProt P23836) | Sort-seq, item: YFP reporter | E. coli | PhoQ-PhoP variant library, with: 10 µM Mg2+ | baseline: high Mg2+ state, higher = stronger signaling | fold induction | 6.5 |

Some of these lines once more (sample 1):
| Sequence | E-score |
| --- | --- |
| TACGGAAA | 0.24 |
| CATACAGG | -0.211 |
| CGCCTTCA | 0.0942 |
| GCCCACGA | -0.195 |
| AGCAAACT | -0.0337 |
